Assay results gathered from unrelated publications.
Each numbered part is a random draw from the data of one study; scales do not carry over between parts.

Sample 1 — method: RNA Bind-n-Seq; molecule type: RNA; medium: in vitro; concentration: 365 nM; baseline: no-protein control; reading: higher = stronger binding
Target: RNA binding protein fox-1 homolog 2, RRM domain, GST-SBP tag (RBFOX2, Homo sapiens, UniProt O43251-10, residues 100-194)
Notes: natural RNA segment, single round, ends assumed
All sequences stand within: GGGAGUUCUACAGUCCGACGAUC … UGGAAUUCUCGGGUGCCAA
Residues (chain): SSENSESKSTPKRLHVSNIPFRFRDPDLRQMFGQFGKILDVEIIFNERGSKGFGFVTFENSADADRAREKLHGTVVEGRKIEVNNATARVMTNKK
Strand | RBNS enrichment (R)
UAAAUACUGUACAUGGUGGGGAAUGGAAUGCCUGUUGGAGAAGCUUCUAGCCAAUCACGCUCUGGACCAGCAUGUUGGAAUCCAGUGUGGGGCAAAUGCAGUAAAGAUUU | 38.6
CCCAUCACAGCAUUCCCAGGUCCUGGUACCCAGCCCUCAGUUGUCAUUUGGUUCAGAAUCAGUUCCCUUUCUCUGGGACCAAAUUUCCCUUCUCUAAACAUCCUACAGAG | 0.5
UUCCUCCAUGUGGAAAUGAGGAGAGAGGAAAGUGGAUUGCAAACCAAAAUGUGAGUCAGUGUGAUGAAGCAGUGGCUCUGUCAUCUCGGCCUUUAUCCAAUAACAAACCA | 0.309
GUGGAGAUGUGGCUGGACAGGUUUGCCAUCAGAGUGGAUAUACCGUUGUAUUAAAAACAAGAUAAAAAAGCUGCCAAGAUUUUUGGCGAGUGGUUGGUCUGAAGUCCUUG | 0.623
GGGCAGGGGAACUCCUAAAAUAAUACAUGACCACUUCCUCAUUUCUGGGGAAGGAAAGGAGACUAGAGCAGCUGGUGUGCUCACCCCUCCCUAGUCACCUCCAUUAACCA | 0.186
UGUUUCAUGGCAACACUGGAUAAUGGCUUUGUGAAAUUUAAAAAAUUUUUGUAGCGACUGUAAACAGAAAUGCCAAAUUGAUGGUUAAUUGUUGCUGCUUCAAAAAUAAG | 0.49
CAAGGUGGGGGCUGUGGCCAUGUGUGGCCGUGAUGUCGAUGAUACUCGUUUUCCCUGAUCCGUGGUGUUGCAGUCCGUUGUCACCAGCCUUGUUUCUAGUGUGUAUAUAU | 0.458
CUGAGUGUGGGCUGGAAUUGUUCUGGUGUUGGGAGGGUCAGCUGGGAGUGUCCAUCUUUAGGGAAGAAGCAGACACAGGUGCCUUCAGCUGUCCAGUAUGGAGGAACACU | 0.857
ACAUUAAACUUUUUUAAAGUAAAGGAGAUGGUAGAUACCGUUAGAUUAUAGUCUUGAGGUUCAUGUGAAGCCAGUGGUGUUAACUUACUUUGAUUUCCUUGUUCAGGUCA | 0.284
GAAAUGAAGGACUUUUUUAACCUUUUCUUUUGUUUUUAAAAAAUAAAUCUGUAAAAUUUGCCUCUUCUGUGGCUUUCUCCCAGUGAUGACGUACCUAAGGUGAGGAAAAG | 0.611
UUCUACUUCAGCUCUGGAUGUGGUUACCAAGUAUCUGUAACCCUUGAGCCCCUAGACAGUAUUGCCAUCUCUGGCCAAAUAUGCACUUUCCCUAGAAAGCCAUAUUCCAG | 0.676
UAGAGGACUGUCUGGUAUCCAAGACGACUAGUGUAUGUCAGGUCCUCAAAUCACCAACAGCUUGUUACUACAACAAAUUGUUUUGAUUUUAGUGCCUGUUGAGGACUUGA | 0.46

Sample 2 — method: universal PBM; molecule type: double-stranded DNA, one strand shown; medium: in vitro; concentration: 600 nM; reading: higher = stronger binding
Target: Sal-like protein 4, full length isoform A (SALL4, Homo sapiens, UniProt Q9UJQ4, residues 1-1053)
Sequence of UniProt Q9UJQ4 (whole entry, looked up): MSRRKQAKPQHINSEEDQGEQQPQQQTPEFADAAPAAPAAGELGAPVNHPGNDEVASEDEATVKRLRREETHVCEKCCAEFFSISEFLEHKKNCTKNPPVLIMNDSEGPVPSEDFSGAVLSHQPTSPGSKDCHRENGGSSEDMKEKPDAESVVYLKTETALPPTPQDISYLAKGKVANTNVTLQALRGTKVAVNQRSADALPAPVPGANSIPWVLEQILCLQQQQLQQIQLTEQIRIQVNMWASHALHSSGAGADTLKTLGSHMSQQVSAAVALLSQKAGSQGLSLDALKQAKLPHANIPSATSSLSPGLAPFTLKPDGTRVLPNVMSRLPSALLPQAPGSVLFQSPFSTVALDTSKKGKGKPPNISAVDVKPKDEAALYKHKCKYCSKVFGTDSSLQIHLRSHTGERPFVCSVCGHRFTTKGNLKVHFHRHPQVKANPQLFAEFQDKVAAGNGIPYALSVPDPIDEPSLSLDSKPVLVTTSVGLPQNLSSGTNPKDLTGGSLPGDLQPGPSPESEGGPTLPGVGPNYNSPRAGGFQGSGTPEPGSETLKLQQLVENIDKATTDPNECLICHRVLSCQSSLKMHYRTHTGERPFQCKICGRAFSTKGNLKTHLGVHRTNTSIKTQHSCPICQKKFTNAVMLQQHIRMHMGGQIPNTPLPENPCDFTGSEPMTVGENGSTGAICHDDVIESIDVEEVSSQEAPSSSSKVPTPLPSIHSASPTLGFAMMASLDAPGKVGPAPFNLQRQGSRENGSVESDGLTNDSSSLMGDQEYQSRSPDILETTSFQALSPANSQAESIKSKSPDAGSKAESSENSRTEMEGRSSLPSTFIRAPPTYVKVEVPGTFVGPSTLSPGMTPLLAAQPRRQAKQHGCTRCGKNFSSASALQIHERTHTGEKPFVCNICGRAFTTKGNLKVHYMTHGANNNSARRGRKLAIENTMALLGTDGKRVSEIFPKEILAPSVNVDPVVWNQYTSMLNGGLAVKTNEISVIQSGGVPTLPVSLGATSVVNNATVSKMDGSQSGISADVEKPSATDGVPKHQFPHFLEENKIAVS
Notes: 8-mer, flanks averaged, mean of replicates
Strand | E-score
CCGTAGCC | -0.332
TCGTTAGA | 0.149
AACTGGGT | -0.125
CGCTTAGC | -0.366
TGTTAGAA | 0.203
ATAAGTGG | 0.25
CTCAGGAG | -0.165
GCAGGGCC | -0.366
ACCTTATG | 0.228
ATCGGTGA | 0.0395
ACTCACTA | 0.0888
GTATAGTA | 0.221
AGCATACA | 0.191
ATAGCGTC | 0.119
GTGCTTAA | 0.0365
AGGCTAAC | -0.167
AAACAACC | 0.0398

Sample 3 — method: RNA Bind-n-Seq; molecule type: RNA; medium: in vitro; concentration: 200 nM; notes: whole 134-nt RNA, ends assumed; added: 150 mM LiCl; baseline: input library; reading: higher = stronger binding; each molecule: 7-deaza-guanosine replaces G
Target: Fragile X messenger ribonucleoprotein 1, C-terminal low-complexity region (Fmr1, Mus musculus, UniProt P35922)
All sequences stand within: GGGAGUUCUACAGUCCGACGAUC … UGGAAUUCUCGGGUGUCAAGG
Strand | log2 enrichment
CUGUGCUACACAUCGUAUGUACCGAAUCGGGGCCCCCCCGGGGCCCCCCCGGGCCCCCCCGGAAAGUAUUAUGUUACGCCGUUCGGAUCU | -2.04
UCAAGUCCUGUGCUACACAUCGUAUGUACCGAAUCGGUUGGGGUUGGGGUUGGGAAAGUAUUAUGUUACGCCGUUCGGAUCUGCACUUCC | -1.41
GUCCUGUGCUACACAUCGUAUGUACCGAAUCAAAUUUAAAUUUUUUUAAAUUUUUAAAAAAGUAUUAUGUUACGCCGUUCGGAUCUGCAC | -2.91
ACCAUGCAGGUGGGCAUCUUUGGGAAGUGGGGCAAGGGGGGGAUAGGGCGGGGGGUAACACUUUGGGAACAGGUGGUCCCAGGUCGUUUC | 1.35
GUCCUGUGCUACACAUCGUAUGUACCGAAUCGGGGAAAAAGGGAAAAAGGGAAAAAGGGAAAGUAUUAUGUUACGCCGUUCGGAUCUGCA | 0.404
UCCUGUGCUACACAUCGUAUGUACCGAAUCAAACCCCCCCAAAUUUUUAAAUUUUUAAAAAAGUAUUAUGUUACGCCGUUCGGAUCUGCA | 1.99
UGGGAGGUGGAUUUUGUUUAUUUUUUUAGCUCAUUUCCAGGGGUGGGAAUUUUUUUUUAAUAUGUGUCAUGAAUAAAGUUCUUUUUGAAA | -0.225
UGGGAGGUGGAUUUUCUUUAUUUUUUUAGCUCAUUUCCAGGGGUGGGAAUUUUUUUUUAAUAUGUGUCAUGAAUAAAGUUGUUUUUGAAA | 0.0231
AAGUCCUGUGCUACACAUCGUAUGUACCGAAUCGGUUUUGGGGUUUUGGGGUUUUGGAAAGUAUUAUGUUACGCCGUUCGGAUCUGCACU | -1.02
CACAGACAACACGCACCCACACAGACACAGAGGGAAGGGGUUGGGAUGGGGACAGGGUGCACAGCAGGGCGGGGUAGGACCCCAUCCCCU | -0.569
UCCUGUGCUACACAUCGUAUGUACCGAAUCGGGUUUUUUUGGGUUUUUGGGUUUUUGGGAAAGUAUUAUGUUACGCCGUUCGGAUCUGCA | 0.263

Sample 4 — method: protein-binding microarray; molecule type: double-stranded DNA, one strand shown; medium: in vitro; concentration: 940 nM top; notes: 60-bp whole probe; added: salmon DNA 0.4 mg/ml; baseline: random background probes; reading: higher = stronger binding; all sequences stand within: GCCTAGCAC … GTCTTGATTCGCTTGACGCTGCTG
Target: Interferon regulatory factor 5, full length, phosphomimetic (IRF5, Homo sapiens, UniProt Q13568-2, residues 1-514, S451D/S453D/S456D/S462D)
Strand | fitted relative affinity [z-score]
GAGTGCTGGGATTACAGGCAGTGCTAG | -0.474
TCAATCTTCAAGACTCATACTGTGCTA | 0.17
GACGGACTGGACACTGGGGATGTGCTA | -0.381
GACGGTTTACTTCTCCTGACGTGCTAG | 0.508
TGAGATATCAGACTGGATTAGTGCTAG | -0.514
GACGGTTTCCTTATCCCGACGTGCTAG | 2.68
GACGGTTTCGCTATCGGGACGTGCTAG | 7.92
GTCGGTTTCCTTTCCCTGACGTGCTAG | 4.36
GACGGTTCCCTTTTCGTGACGTGCTAG | 0.844
TCACATGTGGGTTCCATACTGTGCTAG | 0.0335
TTAGAACTGGGGTTTCAATTAGTGCTA | 1.21
GACGGTTTCGGTAGCGGGACGTGCTAG | 12.5
CTCTTTTTGCTTTCTTTATGGTGCTAG | 3.11
GACGAACTGGGGTTTCTAGACGTGCTA | 0.323
GACGGTTTCGGGGCTGGGGACGTGCTA | 7.45
TTAGAACTTAGTCTCGATTAGTGCTAG | 3.53
ATTGCTTCCTCTTTACTGCTGTGCTAG | 1.24
TCAGTTTTCATTATTGCACTGTGCTAG | 2.25
GTATTTGTCCCTATTTAAGAGTGCTAG | 1.51
TTATGTATCGGTTTCGGTTAGTGCTAG | 10.1
TTAGAACGGGGGTTTCGATTAGTGCTA | 9.9
